Assay results gathered from unrelated publications.
Compare with care: the assays were run in different laboratories. ± gives the spread as reported.

| SMILES | assay | test system | conditions | how to read | measurement | value |
| --- | --- | --- | --- | --- | --- | --- |
| Cc1ccc(Sc2ccccc2N2CCNCC2)c(C)c1 | measured: abdominal pain | healthy adult men | oral, 20 mg daily, 12 days | – | participants with TEAE | 0% |
| CC[C@H](C)[C@H](NC(=O)[C@H](CO)NC(=O)[C@H](CCCNC(=N)N)NC(C)=O)C(=O)N[C@H]1CSSC[C@@H](C(=O)N[C@H](C(N)=O)[C@@H](C)O)NC(=O)[C@H](CCCNC(=N)N)NC(=O)[C@H](Cc2c[nH]cn2)NC(=O)[C@H](C)NC(=O)CNC(=O)[C@H](Cc2c[nH]c3ccccc23)NC(=O)[C@H](CC(=O)O)NC(=O)[C@H](CCC(N)=O)NC(=O)[C@H](Cc2c[nH]c3ccccc23)NC(=O)[C@H](C(C)C)NC1=O | RP-HPLC, C18 | 28% acetonitrile isocratic | pH 7.4 | – | retention factor | 1.348 ± 0.009 |
| CNCc1ccc(-c2[nH]c3cc(F)cc4c3c2CCNC4=O)cc1 | – | human patients | oral, 40 mg once daily, grade 500 or higher | – | incidence of pulmonary embolism | 0% |
| CNC(=O)c1ccc(-c2cnc3ncc(Cc4ccc5ncccc5c4)n3n2)cc1F | – | healthy human subjects | oral, 400 mg, Headache, all grades, all causality, together with: rifampicin 600 mg/day | – | subjects with adverse event | 11.5% |
| CCc1cc(C(=O)NC)c2nccc(N3CCc4c(cc(Cn5ccnc5)cc4-c4cn(C)nc4C(F)(F)F)C3=O)c2c1 | – | Sprague Dawley rat | oral, 100 mg/kg once daily, day 6, 7-day toxicology study | – | body weight | 257.3 ± 1.5 g |
| CCc1nc(C(N)=O)c(Nc2ccc(N3CCC(N4CCN(C)CC4)CC3)c(OC)c2)nc1NC1CCOCC1 | – | Japanese patients, plasma | oral, 80 mg, cycle 0 day -2, single dose, median | – | AUC(0-24) | 1040 ng·h/mL |
| C=CC(=O)Nc1cc(Nc2nccc(-c3cn(C)c4ccccc34)n2)c(OC)cc1N(C)CCN(C)C | storage stability | human plasma | 10 d, on ice, LLOQ level | – | recovery | 53.8% |
| CCN1/C(=C/C(C)=O)Sc2ccc(F)cc21 | – | cynomolgus monkey | oral, 30 mg/kg, 0.5 h post-dose | relative to: pre-dose | heart rate change | 120 ± 17.3% |
| [18F]c1ccc(-c2ccc3c(c2)[nH]c2ccncc23)cn1 | ex vivo biodistribution | B6SJL mouse, normal, feces | intravenous, 30 min | – | SUV | 2.49 ± 2.99 |
| Cc1ccc([C@@H]2O[C@H](CO)[C@@H](O)[C@H](O)[C@H]2O)cc1Cc1ccc(-c2ccc(F)cc2)s1 | measured: inorganic phosphorus | Japanese type 2 diabetes patients | 25 mg, day 15, 24 h urine collection | relative to: baseline | urinary phosphate excretion change | 0.128 mg |
| CCCCOc1ccc([C@H]2CC[C@H](CCC)CC2)c(F)c1F | – | rat, fetus | 1000 ng/mL in perfusate, middle dose, mixture of 21 LCMs | – | fetal accumulation | 0.427 ± 0.353 ng/g |
| C[C@@H](N)C1CCN(S(=O)(=O)c2cccc3cnccc23)CC1 | measured: Hypotension | healthy volunteers | 150 mg, fed | – | TEAE incidence | 0% |
| C[C@]12C[C@@]34C=CC(=O)[C@@](C)(CCC(=O)Nc5c(O)ccc(C(=O)S[C@H]6CC(=O)[C@@](C)(CCC(=O)Nc7c(O)ccc(C(=O)O)c7O)[C@@H]7[C@@H]8C[C@@H]9C[C@]67C[C@]9(C)O8)c5O)[C@@H]3[C@H](C[C@@H]1C4)O2 | – | C57BL/6 mice, plasma | intravenous, 10 mg/kg | – | clearance | 11 mL/min/kg |
| O=C([O-])CCCCCCCNC(=O)c1ccccc1O.[Na+] | – | healthy postmenopausal women | oral, 300 mg, geometric mean, together with: oral contraceptive plus oral semaglutide | – | AUC(0-24h) | 1820 ng·h/mL |
| O=c1c2ccccc2oc2ccccc12 | – | tricaprin-tricaprylin mixture | 75 °C, tricaprin fraction 0.17 | – | solubility | 0.0899 mole fraction |
| CCCCCCCCCCCCCC(=O)[O-].C[N+](C)(C)CCO | fluorescence probe | water | 37 °C | – | critical aggregation concentration | 13.75 ± 0.07 mmol/L |
| CO[C@H]1C[C@@H]2CC[C@@H](C)[C@@](O)(O2)C(=O)C(=O)N2CCCC[C@H]2C(=O)O[C@H]([C@H](C)C[C@@H]2CC[C@@H](O)[C@H](OC)C2)CC(=O)[C@H](C)/C=C(\C)[C@@H](O)[C@@H](OC)C(=O)[C@H](C)C[C@H](C)/C=C/C=C/C=C/1C | – | healthy adult horses | oral, 0.06 mg/kg, 4 h | – | heart rate | 33.5 ± 2.8 beats/min |

A few entries again:
| SMILES | assay | test system | conditions | how to read | measurement | value |
| --- | --- | --- | --- | --- | --- | --- |
| CCCCCCCCCCCCCC(=O)[O-].C[N+](C)(C)CCO | fluorescence probe | water | 37 °C | – | critical aggregation concentration | 13.75 ± 0.07 mmol/L |
| CC[C@H](C)[C@H](NC(=O)[C@H](CO)NC(=O)[C@H](CCCNC(=N)N)NC(C)=O)C(=O)N[C@H]1CSSC[C@@H](C(=O)N[C@H](C(N)=O)[C@@H](C)O)NC(=O)[C@H](CCCNC(=N)N)NC(=O)[C@H](Cc2c[nH]cn2)NC(=O)[C@H](C)NC(=O)CNC(=O)[C@H](Cc2c[nH]c3ccccc23)NC(=O)[C@H](CC(=O)O)NC(=O)[C@H](CCC(N)=O)NC(=O)[C@H](Cc2c[nH]c3ccccc23)NC(=O)[C@H](C(C)C)NC1=O | RP-HPLC, C18 | 28% acetonitrile isocratic | pH 7.4 | – | retention factor | 1.348 ± 0.009 |
